Measured values gathered from unrelated publications.
Each line is one published result; not all experiments were run side by side.
MAP3K7 with TAB1: Mitogen-activated protein kinase kinase kinase 7, with TAB1 (MAP3K7, Homo sapiens, UniProt O43318)
MAP3K7: Mitogen-activated protein kinase kinase kinase 7 (MAP3K7, Homo sapiens, UniProt O43318)

Structure (SMILES)	target	assay	system	setting	how to read	endpoint	value
C=CC(=O)N1Cc2nc(-c3cc(-c4cc(Cl)cnc4Cl)c(F)cc3F)n(-c3ccncn3)c2C1	MAP3K7 with TAB1	kinome panel		1 µM		inhibition	1.2%
Cc1cnc2nc1Nc1cccc(c1)COC/C=C/COCc1cc(ccc1OCCN1CCOCC1)N2	MAP3K7	binding, competition with immobilised ligand		0.1 µM		remaining binding	94%
Nc1ncc(-c2cc(-c3cnn(CC(F)(F)F)c3)ncc2F)nc1C(=O)NC1CNCC(F)C1 (stereo not shown)	MAP3K7	enzyme activity		1 µM	reference: DMSO control	remaining activity	100%
Cn1cc(-c2cnc3ccc(NC(=O)Nc4ccc5sccc5c4)cc3n2)cn1	MAP3K7	kinase binding, KiNativ profiling, item: Lys2 peptide	PANC-1 lysate	2.5 µM		inhibition	1.9%
COc1cc(Nc2nc(C)cc(-c3cnn4nc(OC)ccc34)n2)cc(C(F)(F)F)c1	MAP3K7	binding, competition with immobilised ligand		1 µM		remaining binding	73%
COc1c(Cl)cccc1Nc1c(-c2ccncc2C#C[C@@]2(C)CCCN2C(=O)/C=C/CN(C)C)[nH]c2c1C(=O)NCC2	MAP3K7	binding, competition with immobilised ligand		3 µM		remaining binding	91%
Cc1cccc(O[C@H]2CCC[C@@H](C(C)CNCc3ccncc3)C2)c1 (relative stereo)	MAP3K7 with TAB1	kinome profiling		10 µM		inhibition	7%
CC(C)=CC1OC(C)(C)C2C=C3C(=O)C(Cl)=CC(O)C3C3C(O)C4OC4C(=O)C132 (stereo not shown)	MAP3K7	cell-free assay, competition with immobilised ligand		10 µM		remaining binding	78%
NC(=O)C[C@H]1CCc2sc3ncnc(O[C@H]4CC[C@H](N5CCOCC5)CC4)c3c21	MAP3K7	enzyme activity, inhibitor		10 µM		inhibition	0%
CNC1C[S+]2CC[S+]3CC[S+](C1)[Ru-4]321([N]=C=S)[n]2c3ccc(OC)cc3c3c4c(c5cc(F)c[n+]1c5c32)C(=O)NC4=O (stereo not shown)	MAP3K7	KinomeScan		0.1 µM	reference: untreated	remaining binding	99%
O=C(Cc1ccc(OCc2ccccc2)cc1)NC1(C(=O)O)CCN(C(=O)c2ccc(-c3cccc(Cl)c3)cc2)CC1	MAP3K7	enzyme activity, inhibitor		10 µM		activity vs control	98%
CCN1CCN(Cc2ccc(C(=O)Nc3ccc(C)c(NCc4cnc5[nH]ccc5c4OC)c3)cc2C(F)(F)F)CC1	MAP3K7	binding, competition with immobilised ligand		1 µM		remaining binding	11%
C=CC(=O)Nc1cccc(-c2cnc3[nH]cc(C(=O)NC(C)(C)C)c3n2)c1	MAP3K7 with TAB1	enzyme activity, inhibitor		0.1 µM		inhibition	17%
C=CC(=O)N1CCc2ccc(-n3c(=O)ccc4cnc5ccc(-c6cnn(C)c6)cc5c43)cc21	MAP3K7	KINOMEscan		1 µM	reference: DMSO control	remaining binding	83%
CNC(=O)C1CCN(c2cc(C)c(F)cc2NC(=O)c2ccc(-c3cc(O)ccc3C)c(C)c2)CC1	MAP3K7	binding, competition with immobilised ligand		1 µM		remaining binding	100%
Nc1ncc2c(n1)-c1c([nH]c3ccc(C4=CCOCC4)cc13)CCC2	MAP3K7	binding, competition with immobilised ligand		1 µM		remaining binding	100%
